Assay results gathered from unrelated publications.
Parts stem from different laboratories: compare values within a part only.

Series 1 — technique: RNA Bind-n-Seq; form: RNA; sample: in vitro; tested at: 365 nM; baseline: no-protein control; reading: higher = stronger binding
Target: RNA binding protein fox-1 homolog 2, RRM domain, GST-SBP tag (RBFOX2, Homo sapiens, UniProt O43251-10, residues 100-194)
Setting: natural RNA segment, single round, ends assumed
Target sequence (chain): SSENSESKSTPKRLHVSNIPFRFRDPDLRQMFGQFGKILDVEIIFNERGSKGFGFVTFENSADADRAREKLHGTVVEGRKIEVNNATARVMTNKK
`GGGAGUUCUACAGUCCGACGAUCGGCCAUAGGGUGUCCUUGGGUACAUCCAGGAGUCUUCAUUGCUUCUGUUAUUACCCCGUCUCCUCUGCCAUUUUCUACAGCUUGCUGAGUUGUCAUUCCUUUGCAACAUUUGGAAUUCUCGGGUGCCAA`: “RBNS enrichment (R)” 0.469.
Under “RBNS enrichment (R)”, `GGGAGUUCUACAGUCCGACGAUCUUAGUAUGGCAAAUCAUAUUUUACUUUUACUUAAGCAUUUGUAAUUUGGAGUAUCUGGUACUAGCUAAGAAAUAAUUCUAUAAUUGAGUUUUGUACUCACCAUAUAUGGAUGGAAUUCUCGGGUGCCAA` is recorded as 0.333.
Under “RBNS enrichment (R)”, `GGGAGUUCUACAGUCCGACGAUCAUAAAGGGUUUCCCAAGGGUAGACACCUUGACCAUCCUGAAGUAUGGGUGCUGUACCUGUUCCAGAAGCGAGGACCCAGGUGACAGCCUCACCUUUGCAAAGUUAUAGAGUGGAAUUCUCGGGUGCCAA` is recorded as 0.314.
`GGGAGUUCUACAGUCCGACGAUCGAUAAAGAUCCCUUGGGGGGGGGGGAGUUGGAUGUUUGACUACUAGGAGAUACUAGAGGCUCAGACAGCAGGCAUGUAUCCCCAUGGGGAAUAUGUGAGGACCUGGACCGUGGAAUUCUCGGGUGCCAA` — result for “RBNS enrichment (R)”: 3.34.
Under “RBNS enrichment (R)”, `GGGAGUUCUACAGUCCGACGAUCGAACUAAAUCUGUGGAAUGCAUUGUGAACUGUAAAAGCAAAGUAUCAAUAAAGCUUAUAGACUUAAAUAUGCUUUGGUAUUUUCAUUUCAUGAAAUUGCAGCAGAUUAAAUGGAAUUCUCGGGUGCCAA` is recorded as 0.409.
`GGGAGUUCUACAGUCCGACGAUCCUUGCCCUGAAAUCUCAAUGUCUAUUCAGUGAUAGUACAAGCACGUAGAUACCACUUAGUAUACUAUUGUUUCUAUUAAAAAAAAAAAAAAAAAGGUCUGUUCCUGCUACUGGAAUUCUCGGGUGCCAA`: “RBNS enrichment (R)” 0.918.
For `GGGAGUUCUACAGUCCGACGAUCAAACACAAAUCAAGUUCCAAAUUUCAUUGGACUCCACUUGAAGACCAUGAGAAAAUAGCUUGGUCUGACCACAAUCUCCUGCUCAUGACUCUCUGAGGCUUCUUGUUAAAUGGAAUUCUCGGGUGCCAA`, “RBNS enrichment (R)” read 0.182.
`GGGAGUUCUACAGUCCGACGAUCGGUAUUUUUACUUUUAUUUUUUGAUCUGAACUGGGAGCUAUAUUUAGCCCUCUGCCUCUCCAAAGCAUCAGAACCACCUUCAGUCUGGAGAAGGGGAAGCCUCUUGGAGAUGGAAUUCUCGGGUGCCAA`: “RBNS enrichment (R)” 0.729.
Under “RBNS enrichment (R)”, `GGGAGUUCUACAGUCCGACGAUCACUGUCCAGCAUUUUUCUGUCGUUUCCCCCCCACCCCAAAUCCUUUUUUUCUCUUCUUUUUUAAAAGAUAGGUAGGGUCUUGCUAGAUAUCUCUAGCAAGCCUGUUUCUUUGGAAUUCUCGGGUGCCAA` is recorded as 0.922.
Under “RBNS enrichment (R)”, `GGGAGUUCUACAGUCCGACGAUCAUCUUUUUAACAGCACUGUAGCAUUUUUCUUCGUUUAGAACCUUUACUGACUCCAUUGAGUCCCUGAGCAUCUGUACAUAGCCUUCACCACCCCCAGUCUCAAUCCUGUGUGGAAUUCUCGGGUGCCAA` is recorded as 0.837.
Under “RBNS enrichment (R)”, `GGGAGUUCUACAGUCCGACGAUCGACAUGAAAUAUGUAACUAGGAAAAACUGUUAACAUUAAACAUCAUAUUUAUGCAAAUUAAAUGCCCUUAAAAUUUUGCCAUUUGUCUUUCAUUUUAAAGGUUAUUUGCCUGGAAUUCUCGGGUGCCAA` is recorded as 0.53.
Under “RBNS enrichment (R)”, `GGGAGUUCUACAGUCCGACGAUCUAAAUCAUUUCAGUAUCCUCUCCAUCACAUGCCUGGCCCUUGCUCCCUUCAGCGCUAGACCAUCAAGUUGGCAUAAAGAAAAAAAAAUGGGUUUGGGCCCUCAGAACCCUUGGAAUUCUCGGGUGCCAA` is recorded as 0.438.

Series 2 — technique: universal PBM; form: double-stranded DNA, one strand shown; sample: in vitro; tested at: not given; reading: higher = stronger binding
Target: Sal-like protein 4, full length isoform B (SALL4, Homo sapiens, UniProt Q9UJQ4-2, residues 1-616)
Setting: 8-mer, flanks averaged, mean of replicates
For `CCATGACC`, the E-score was -0.213.
With `GGCTGTAA` the E-score was -0.0371.
`CCGTGAGC` has an E-score of -0.316.
With `GACGCAAC` the E-score was -0.175.
With `AGTGTGAT` the E-score was -0.00376.
With `ATTGCCTA` the E-score was 0.0958.
The E-score of `ACATCGGG` is reported as -0.261.
With `ATAGTCCC` the E-score was 0.00943.
For `CCCCGTAG`, the E-score was -0.313.
`CATAACAC` gave an E-score of 0.33.
`CTCCATGC` gave an E-score of -0.106.
`ACATGGGT` has an E-score of 0.0818.
`ATCCTGTC` has an E-score of 0.103.
The E-score of `AAGTACTA` is reported as 0.235.
With `GCGGAGCC` the E-score was -0.377.
The E-score of `ATCGACCG` is reported as -0.207.
`ACAAATTC` gave an E-score of 0.221.
For `CCCGTGTC`, the E-score was -0.346.
For `AGTGCGGC`, the E-score was -0.298.
`AACGCGTA` gave an E-score of 0.132.
`CTCTTTGA` gave an E-score of -0.0129.
`CTTCGAGA` has an E-score of -0.0031.

Series 3 — technique: protein-binding microarray; form: double-stranded DNA, one strand shown; sample: in vitro; tested at: 0.8 µM; setting: whole 60-bp probe, no competitor; reading: higher = stronger binding
Target: Centromere-binding protein 1, full length, N-terminal tag (CBF1, Saccharomyces cerevisiae, UniProt P17106, residues 1-351)
Sequence of UniProt P17106 (whole entry, looked up): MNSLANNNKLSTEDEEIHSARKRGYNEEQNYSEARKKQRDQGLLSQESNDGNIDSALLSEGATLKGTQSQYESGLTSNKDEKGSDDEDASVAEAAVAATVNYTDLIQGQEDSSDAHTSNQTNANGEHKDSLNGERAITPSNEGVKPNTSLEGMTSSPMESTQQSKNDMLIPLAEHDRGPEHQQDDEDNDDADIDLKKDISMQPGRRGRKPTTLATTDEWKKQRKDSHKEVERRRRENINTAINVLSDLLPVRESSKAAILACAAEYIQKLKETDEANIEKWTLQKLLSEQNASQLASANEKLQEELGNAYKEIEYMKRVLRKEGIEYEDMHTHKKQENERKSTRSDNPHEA
`CTAATGGAGTTTTCAAACGTGGAACAAAGAACCTTCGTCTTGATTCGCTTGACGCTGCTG` gave a fluorescence intensity of 549 a.u.
`CTACTGTTGTATTTCCGCGTGAATCCACTTTTATTCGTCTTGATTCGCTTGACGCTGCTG` gave a fluorescence intensity of 558 a.u.
`CTATAAAAAACAAAAAACACCACGTCCGGGTAATTCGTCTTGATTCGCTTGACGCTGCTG` has a fluorescence intensity of 533 a.u.
With `GAATATGACTTTCATCACCTTCCCATCTGAAGATAGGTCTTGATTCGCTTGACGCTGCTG` the fluorescence intensity was 487 a.u.
The fluorescence intensity of `GAATTGAAAAGATGGAACGTGCTGCTGCTGATGTAGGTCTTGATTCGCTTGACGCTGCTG` is reported as 654 a.u.
`TGTACGAAGCTATTGATGATGATTATAGTAGTTAGGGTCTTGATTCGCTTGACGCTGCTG` gave a fluorescence intensity of 534 a.u.
For `GAAGGAAAAAGGTGTCACGTGATCAGATGGTCTTAGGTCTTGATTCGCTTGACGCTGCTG`, the fluorescence intensity was 53500 a.u.
`CTATTTCGAAGAGCTCATCAGACGTTTTTCAGTTTCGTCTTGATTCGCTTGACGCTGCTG` has a fluorescence intensity of 534 a.u.
`CTACACAAATATTTACACGTGAGAGAAAGGAAGTTCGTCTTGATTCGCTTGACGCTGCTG` has a fluorescence intensity of 3640 a.u.
For `CTACAGTCCAAAAAGTACGTGCACCAAAAGAAGTTCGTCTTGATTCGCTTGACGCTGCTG`, the fluorescence intensity was 595 a.u.
With `GAAATATAGGGCGGTGATGATACCCATCGAGCTTAGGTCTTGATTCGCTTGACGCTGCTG` the fluorescence intensity was 503 a.u.
With `CTATCCATAATGTTATATGTGATCTTTATCAACTTCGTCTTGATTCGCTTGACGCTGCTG` the fluorescence intensity was 531 a.u.
`GAAGTAACAAAAAATCAGGTGAGTAATATCAGTTAGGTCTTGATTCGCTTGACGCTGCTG` gave a fluorescence intensity of 936 a.u.
The fluorescence intensity of `CTAACGATGCTGCACGTGGTTAGTTTTGTAAGCTTCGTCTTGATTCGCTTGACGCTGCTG` is reported as 7260 a.u.
The fluorescence intensity of `GAACGATCTGTTGGTGGTGTTCTAAAGTGAAGGTAGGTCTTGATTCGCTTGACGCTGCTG` is reported as 554 a.u.
`CTAATTAAATAGAAATATCACATGGCGATCCACTTCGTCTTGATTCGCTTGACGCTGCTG` has a fluorescence intensity of 1230 a.u.
`CTATTCTTGGTGGACCACGTGCCTTGCTTAAAGTTCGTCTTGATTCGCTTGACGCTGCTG` gave a fluorescence intensity of 8710 a.u.
`CCTAACTACTATACAAGCGTGGGATAGCTTCGTACAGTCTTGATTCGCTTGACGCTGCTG` has a fluorescence intensity of 519 a.u.

Series 4 — technique: RNA Bind-n-Seq; form: RNA; sample: in vitro; tested at: 20 nM; setting: 6-mer, flanks averaged, single round; added: 150 mM KCl; baseline: input library; reading: higher = stronger binding
Target: TAR DNA-binding protein 43, full length, His tag (TARDBP, Homo sapiens, UniProt Q13148, residues 1-414)
`UCUAAU`: “6-mer enrichment (R)” 0.616.
`GGUACC`: “6-mer enrichment (R)” 0.932.
Under “6-mer enrichment (R)”, `GUGGUA` is recorded as 1.44.
`CAAGGU` — result for “6-mer enrichment (R)”: 0.838.
`GAGUGC`: “6-mer enrichment (R)” 1.53.
`CUGUGC` — result for “6-mer enrichment (R)”: 0.8.
`CGCGCC` — result for “6-mer enrichment (R)”: 0.825.
`UUUUCA` — result for “6-mer enrichment (R)”: 0.604.
`CGAUAG` — result for “6-mer enrichment (R)”: 0.807.
For `CAACCA`, “6-mer enrichment (R)” read 0.627.
Under “6-mer enrichment (R)”, `UGAAGA` is recorded as 0.858.

Series 5 — technique: protein binding microarray; form: double-stranded DNA, one strand shown; sample: in vitro; tested at: not given; baseline: not given; reading: higher = stronger binding
Target: Histone acetyltransferase KAT6A, winged helix 2, GST fusion (KAT6A, Homo sapiens, UniProt Q92794, residues 85-181)
Setting: 8-mer, flanks averaged, mean of 2 arrays, mostly near background
Construct (chain): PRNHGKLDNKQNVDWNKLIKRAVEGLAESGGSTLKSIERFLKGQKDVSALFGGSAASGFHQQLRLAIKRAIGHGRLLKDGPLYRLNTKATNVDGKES
`CACTAATC` has an E-score of -0.024.
The E-score of `CTTCTATC` is reported as -0.074.
`AGAGGTCA` has an E-score of -0.109.
`GGTAGCTA` has an E-score of -0.153.
With `GCGCTCGA` the E-score was 0.00185.
`CTAGTTGC` has an E-score of 0.106.
With `ATTTCGGA` the E-score was 0.0464.
`GTCGCATA` gave an E-score of 0.0527.
`ACACCCCC` has an E-score of -0.175.
With `ATGTTTGG` the E-score was -0.151.
The E-score of `CCTCTCCC` is reported as -0.00203.
`GACTCTCC` has an E-score of -0.167.
`CTCCTAGA` has an E-score of -0.191.
The E-score of `CACCAACA` is reported as -0.0832.
The E-score of `ACGCGTCC` is reported as 0.0246.
The E-score of `AATGTGTC` is reported as -0.199.
With `ACCGGATA` the E-score was -0.208.
For `TCGCCGAA`, the E-score was 5e-05.
`CTACACGA` gave an E-score of 0.0708.
`AAGTTAAC` gave an E-score of 0.0553.
For `ACGTCATA`, the E-score was -0.136.
With `CGACTCCG` the E-score was -0.0256.
`TCGCTCAA` gave an E-score of 0.0083.
For `CACTATTC`, the E-score was -0.0756.
`CTGTTGTC` has an E-score of 0.0651.

Repeated from above (series 2):
With `ATTGCCTA` the E-score was 0.0958.
With `ATAGTCCC` the E-score was 0.00943.
`CCGTGAGC` has an E-score of -0.316.
With `GACGCAAC` the E-score was -0.175.
`ACAAATTC` gave an E-score of 0.221.
